Published values of several laboratories.
Compare with care: the assays were run in different laboratories.
Target: Serine/threonine-protein kinase 35 (STK35, Homo sapiens, UniProt Q8TDR2)

SMILES | effect on | mode | method | tested at | relative to | quantity | value
CNC(=O)C[C@H](Cc1ccc(C#N)cc1)NC(=O)c1cc(-c2ccc(CN[C@H](C)c3ccc(C)cc3)o2)ccc1Cl | enzyme activity | inhibitor | – | 1 µM | – | activity vs control | 92%
Cc1ccc(-c2c(/C=C(\C#N)C(=O)NC(C)C)n(CCCO)c3ncnc(N)c23)cc1 | cell-free assay | – | competition with immobilised ligand | 1 µM | – | remaining binding | 98%
C=CC(=O)N1CCCC(n2c(=O)c3ncccc3n(Cc3ccc(Oc4ccccc4)cc3)c2=O)C1 (stereo not drawn) | cell-free assay | – | competition with immobilised ligand | 1 µM | – | remaining binding | 100%
CNC(=O)C1CCN(c2cc(C)c(F)cc2NC(=O)c2ccc(-c3cc(O)ccc3C)c(C)c2)CC1 | binding | – | competition with immobilised ligand | 1 µM | – | remaining binding | 95%
COc1cc(Nc2nc(C)cc(-c3cnn4nc(OC)ccc34)n2)cc(C(F)(F)F)c1 | binding | – | competition with immobilised ligand | 1 µM | – | remaining binding | 100%
CN1CC[C@@H](COc2cnc(C#N)cc2-c2ccn3nc(NC(=O)C4CC4)cc3c2)C1 | enzyme activity | inhibitor | – | 1 µM | – | inhibition | 4%
Nc1ncc2c(n1)-c1c([nH]c3ccc(C4=CCOCC4)cc13)CCC2 | binding | – | competition with immobilised ligand | 1 µM | – | remaining binding | 100%
Cc1cnc2nc1Nc1cccc(c1)COC/C=C/COCc1cc(ccc1OCCN1CCOCC1)N2 | binding | – | competition with immobilised ligand | 0.1 µM | – | remaining binding | 100%
CNC1C[S+]2CC[S+]3CC[S+](C1)[Ru-4]321([N]=C=S)[n]2c3ccc(OC)cc3c3c4c(c5cc(F)c[n+]1c5c32)C(=O)NC4=O (stereo not drawn) | – | – | KinomeScan | 0.1 µM | untreated | remaining binding | 100%
O=C(Cc1ccc(OCc2ccccc2)cc1)NC1(C(=O)O)CCN(C(=O)c2ccc(-c3cccc(Cl)c3)cc2)CC1 | enzyme activity | inhibitor | – | 10 µM | – | activity vs control | 117%
CCN1CCN(Cc2ccc(C(=O)Nc3ccc(C)c(NCc4cnc5[nH]ccc5c4OC)c3)cc2C(F)(F)F)CC1 | binding | – | competition with immobilised ligand | 1 µM | – | remaining binding | 73%
CC(C)=CC1OC(C)(C)C2C=C3C(=O)C(Cl)=CC(O)C3C3C(O)C4OC4C(=O)C132 (stereo not drawn) | cell-free assay | – | competition with immobilised ligand | 10 µM | – | remaining binding | 100%
COc1cc(Nc2nccc(-c3cnn4nc(OC)ccc34)n2)cc(C(F)(F)F)c1 | binding | – | competition with immobilised ligand | 1 µM | – | remaining binding | 100%
COc1c(Cl)cccc1Nc1c(-c2ccncc2C#C[C@@]2(C)CCCN2C(=O)/C=C/CN(C)C)[nH]c2c1C(=O)NCC2 | binding | – | competition with immobilised ligand | 3 µM | – | remaining binding | 100%
C=CC(=O)N1CCc2ccc(-n3c(=O)ccc4cnc5ccc(-c6cnn(C)c6)cc5c43)cc21 | – | – | KINOMEscan | 1 µM | DMSO control | remaining binding | 85%

For quick reference, copied from above:
SMILES | effect on | mode | method | tested at | relative to | quantity | value
CC(C)=CC1OC(C)(C)C2C=C3C(=O)C(Cl)=CC(O)C3C3C(O)C4OC4C(=O)C132 (stereo not drawn) | cell-free assay | – | competition with immobilised ligand | 10 µM | – | remaining binding | 100%
Cc1cnc2nc1Nc1cccc(c1)COC/C=C/COCc1cc(ccc1OCCN1CCOCC1)N2 | binding | – | competition with immobilised ligand | 0.1 µM | – | remaining binding | 100%
